Assay results collected from several papers.
Compare with care: the assays were run in different laboratories. Values joined by “and” are separate records of one study, mostly repeats; a detail may differ.
Target: AP2-associated protein kinase 1 (AAK1, Homo sapiens, UniProt Q2M2I8)

C=CC(=O)N1CCc2ccc(-n3c(=O)ccc4cnc5ccc(-c6cnn(C)c6)cc5c43)cc21
remaining binding (KINOMEscan; 1 µM; baseline: DMSO control): 63%

C=CC(=O)N1Cc2nc(-c3cc(-c4cc(Cl)cnc4Cl)c(F)cc3F)n(-c3ccncn3)c2C1
inhibition (cell-free assay, inhibitor; 1 µM): 0.9%

CCN1CCN(Cc2ccc(C(=O)Nc3ccc(C)c(NCc4cnc5[nH]ccc5c4OC)c3)cc2C(F)(F)F)CC1
remaining binding (binding, competition with immobilised ligand; 1 µM): 100%

COc1c(Cl)cccc1Nc1c(-c2ccncc2C#C[C@@]2(C)CCCN2C(=O)/C=C/CN(C)C)[nH]c2c1C(=O)NCC2
remaining binding (binding, competition with immobilised ligand; 3 µM): 98%

CCn1cc(C(=O)O)c(=O)c2c(N)c(F)c(NC3CCCCC3)cc21
inhibition (kinase activity; 0.1 µM, added: ATP at Km): -10.2%

C=CC(=O)N1CCCC(n2c(=O)c3ncccc3n(Cc3ccc(Oc4ccccc4)cc3)c2=O)C1 (centres unmarked)
remaining binding (cell-free assay, competition with immobilised ligand; 1 µM): 98%

N[C@H]1CC[C@H](Nc2nccc(-c3cccnc3Oc3ccc(NC(=O)NC4CC4)c4ccccc34)n2)CC1
log2 LFQ intensity (kinobead competition pulldown; HEK293/HCT116 lysate mixture; 10 µM, 1 h, 4 °C; lower = stronger competition): 28.9 and 28.7 and 28.8

CNC(=O)C1CCN(c2cc(C)c(F)cc2NC(=O)c2ccc(-c3cc(O)ccc3C)c(C)c2)CC1
remaining binding (binding, competition with immobilised ligand; 1 µM): 84%

CC(C)=CC1OC(C)(C)C2C=C3C(=O)C(Cl)=CC(O)C3C3C(O)C4OC4C(=O)C132 (centres unmarked)
remaining binding (cell-free assay, competition with immobilised ligand; 10 µM): 95%

O=C(Cc1ccc(OCc2ccccc2)cc1)NC1(C(=O)O)CCN(C(=O)c2ccc(-c3cccc(Cl)c3)cc2)CC1
activity vs control (enzyme activity, inhibitor; 10 µM): 109%

Cc1cnc2nc1Nc1cccc(c1)COC/C=C/COCc1cc(ccc1OCCN1CCOCC1)N2
remaining binding (binding; 0.1 µM): 100%

Nc1ncc2c(n1)-c1c([nH]c3ccc(C4=CCOCC4)cc13)CCC2
remaining binding (binding, competition with immobilised ligand; 1 µM): 100%

COc1cc(Nc2nccc(-c3cnn4nc(OC)ccc34)n2)cc(C(F)(F)F)c1
remaining binding (binding, competition with immobilised ligand; 1 µM): 90%

CN1CCN(Cc2ccc(-c3ccc(CO[C@H]4CCC[C@@H]4NC(=O)c4cc(-c5cnn(C)c5)cnc4N)cc3)cc2)CC1
inhibition (enzyme activity, inhibitor; 0.1 µM): 3%

COc1cc(Nc2nc(C)cc(-c3cnn4nc(OC)ccc34)n2)cc(C(F)(F)F)c1
remaining activity (inhibitor; 1 µM; baseline: control): 96%

Cc1ccc(-c2c(/C=C(\C#N)C(=O)NC(C)C)n(CCCO)c3ncnc(N)c23)cc1
remaining binding (cell-free assay, competition with immobilised ligand; 1 µM): 100%

CNC1C[S+]2CC[S+]3CC[S+](C1)[Ru-4]321([N]=C=S)[n]2c3ccc(OC)cc3c3c4c(c5cc(F)c[n+]1c5c32)C(=O)NC4=O (centres unmarked)
remaining binding (KinomeScan; 0.1 µM; baseline: untreated): 100%

Repeated from above:
Nc1ncc2c(n1)-c1c([nH]c3ccc(C4=CCOCC4)cc13)CCC2
remaining binding (binding, competition with immobilised ligand; 1 µM): 100%
